Earlier results as cited in several papers.
Compare with care: the assays were run in different laboratories. Numbers after ± are the reported error.

SMILES = CC1=C(CO)C(=O)OC(C(C)C2CCC3C4CC5OC56C(O)C(OS(=O)(=O)O)CC(=O)C6(CO)C4CCC23C)C1 (centres unmarked); cell line = Hs-578T; test = cell growth; IC50 = 3.4 µM
SMILES = Oc1cccc(-c2cccc(O)n2)n1.[Cl-].[Cl-].[Ru+2].c1cnc2c(c1)c1c(c3cccnc32)OCCO1.c1cnc2c(c1)c1c(c3cccnc32)OCCO1; cell line = MDA-MB-231; test = cell viability; setting = with: blue light 450 nm, 1 h; IC50 = 3.7 µM
SMILES = CC(=O)OC1C2C3CCC(C(C)(O)C4CC(C)=C(C)C(=O)O4)C3(C)CCC2C2(C)C(=O)C=CC(O)C23OC13 (centres unmarked); cell line = BC1; test = cell growth; IC50 = 0.68 µM
SMILES = O=C1OCC2=C1C(c1cccc([N+](=O)[O-])c1)C1=C(N2)C(=O)c2ccccc2C1=O (centres unmarked); cell line = KB cells; test = cell growth; IC50 = 1.16 ± 0.01 µM
SMILES = Cc1ccc(C(C)C)cc1.O=C(N=P(c1ccccc1)(c1ccccc1)c1ccccc1)c1ccccn1.[Cl-].[Cl][Ru+]; cell line = HEK-273; test = cytotoxicity; IC50 = 2.8 ± 0.2 µM
SMILES = Fc1cc2nc3c4cccnc4c4ncccc4c3nc2cc1F.[Cl-].[Cl-].[Ru+2].c1ccncc1.c1ccncc1.c1ccncc1.c1ccncc1; cell line = L-O2; test = phototoxicity; setting = light irradiation; IC50 = 30 ± 2.1 µM
SMILES = CC(C)N(P(c1ccccc1)c1ccccc1)P(c1ccccc1)c1ccccc1.Cc1ccc(C(C)C)cc1.F[B-](F)(F)F.[Cl][Ru+]; cell line = A2780R platinum-resistant ovarian cancer; test = cell growth; IC50 = 2.2 µM
SMILES = CC[C@H](C)[C@@H]1NC(=O)[C@H](Cc2c[nH]c3ccccc23)NC(=O)[C@H](C)NC(=O)[C@H](C(C)C)NC(=O)[C@H](CC(C)C)NC(=O)[C@H](Cc2c[nH]c3ccccc23)NC1=O; cell line = HeLa; IC50 = 11 µM
SMILES = CCC1=C(O)c2c(oc(-c3cccc4ccccc34)cc2=O)C(CC)(CC)C1=O; cell line = PC-3; test = cell growth, SRB; IC50 = 1.03 µM
SMILES = [Cl-].[Cl-].[Ru+2].c1ccc(-c2ccccn2)nc1.c1ccc(-c2ccccn2)nc1.c1cnc2c(c1)ccc1cccnc12; cell line = HT-29; setting = dark; IC50 = > 100 µM
SMILES = O=C(N/N=C\c1c(Cl)[nH]c2ccccc12)Nc1cccc(Br)c1; cell line = four cancer cell lines; test = cancer cell growth; setting = range over cell lines; IC50 = 1.43 to 5.48 µM
SMILES = O=C(CCc1ccc(O)c(O)c1)NCCc1ccc(O)cc1; cell line = RAW264.7; test = nitric oxide production; setting = 24 h, with: LPS 100 ng/mL; IC50 = 40.4 ± 4.65 µM
SMILES = Cc1ccc(C2C3=C(COC3=O)NC3=C2C(=O)c2ccccc2C3=O)cc1 (centres unmarked); cell line = SK-LU-1 cells; test = cell growth; IC50 = 1.65 ± 0.03 µM
SMILES = CC(=O)OCC1=C(C)CC(C(C)C2CCC3C4CC5OC56C(OC(C)=O)C=CC(=O)C6(CO)C4CCC23C)OC1=O (centres unmarked); cell line = Hs-578T; test = cell growth; IC50 = 0.46 µM
SMILES = CC(C)(C)C1=CC(=NNC(=O)c2ccncc2)C=C(C(C)(C)C)C1=O; cell line = HC04; test = cell viability; IC50 = 28 µM
SMILES = CCCCCC(=O)N[C@H](CC(=O)N(CC)CC)C(=O)N[C@@H](Cc1ccc(F)cc1)C(=O)N[C@@H](Cc1ccc(F)cc1F)C(=O)[C@@]1(C)CO1; cell line = mammalian cells; test = cell viability; IC50 = 24.3 ± 2.3 µM
SMILES = CCC1=C(O)c2c(oc(-c3cc4ccccc4s3)cc2=O)C(CC)(CC)C1=O; cell line = PC-3; test = cell growth, SRB; IC50 = 3.81 µM
SMILES = C/C(=N\Nc1ccccc1)c1ccc(NC(=O)c2cccnc2)cc1; cell line = HCT-116; test = cell growth; IC50 = 3.08 µM
SMILES = COc1cc(N2CCN(C(=O)CCOCCOCCOCCNC(=O)CN)CC2)ccc1Nc1ncc(Cl)c(Nc2ccccc2P(C)(C)=O)n1; cell line = H3122; test = cell growth; IC50 = 0.84 µM
SMILES = CCNc1cc2c(cc1C)C1(c3cc(C)c(NCC)cc3O2)c2ccccc2C(=O)N1N=Cc1ccnc(-c2cc(C)ccn2)c1.Cc1c(C)c(-c2ccc(-c3ccccc3)cc2)[c-](C)c1C.F[P-](F)(F)(F)(F)F.[Cl-].[Ir+3]; cell line = A549 cancer cells; IC50 = 2.6 ± 0.3 µM

Some of these lines once more:
SMILES = CC(C)N(P(c1ccccc1)c1ccccc1)P(c1ccccc1)c1ccccc1.Cc1ccc(C(C)C)cc1.F[B-](F)(F)F.[Cl][Ru+]; cell line = A2780R platinum-resistant ovarian cancer; test = cell growth; IC50 = 2.2 µM
